# Assay results gathered from unrelated publications.
# Numbered parts are unrelated; each lists some results of a single study. Changes are numbered by the printed parent chain.

# Block 1
# Target: RNA binding protein fox-1 homolog 2, RRM domain, GST-SBP tag (RBFOX2, Homo sapiens, UniProt O43251-10, residues 100-194)
# Technique: RNA Bind-n-Seq
# Molecule type: RNA
# Medium: in vitro
# Tested at: 365 nM
# Notes: natural RNA segment, single round, ends assumed
# Baseline: no-protein control
# Direction: higher = stronger binding
# Target sequence (chain): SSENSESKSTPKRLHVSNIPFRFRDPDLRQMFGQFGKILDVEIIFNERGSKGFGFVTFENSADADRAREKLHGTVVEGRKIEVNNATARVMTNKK
Sequence,RBNS enrichment (R)
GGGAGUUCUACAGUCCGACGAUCUUUUUCAAUUGACAGUUGCAGAAUUGUGGAGUGUUUUUACAUUGAUCUUUUGCUAAUGCAGUUAGCAGUAUGUUUUGCAUGUAUGAAUUAAUAAAUCCUUGAAUCAUACAUGGAAUUCUCGGGUGCCAA,0.537
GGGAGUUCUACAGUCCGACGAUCCAGCCUCUCUCUGCCUCUGGCCCCCAAGUCACCAGGCUGCACACACACGUGGUCGGUCACAUUGCCCUGCCUUACCUCCCAGGGGCCAACCCCUCACUGGUCUUGCAUGAUGGAAUUCUCGGGUGCCAA,1.6
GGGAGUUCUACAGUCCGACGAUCAGUGAGCCAAAUGCCCGUUCUUUCUCCCUUCCUUGAACUCCAGGUCCUGUGCUGUGUCUGUACUCAGCCAUGUGUGUUUUGUCUGCUGUCUGUCUUCUGAGGCUUAGCAUUGGAAUUCUCGGGUGCCAA,1.13
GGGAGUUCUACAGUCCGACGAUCGCUGCCAAUAAUAUCUAAUAUUUUUCAUCAUGCACGAAUUAAUAAUCAUCAUACUCUAGAAUCUUGUCUGUCACUCACUACAUGAAUAAGCAAAUAUUGUCUUCAAAAGAUGGAAUUCUCGGGUGCCAA,0.485
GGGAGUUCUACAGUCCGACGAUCCUUGCUGGGCAUGCUUUUAAGUCUGUGAGAUCAUUUUGCUUCAUUAAGUUGACCAUUCUUUUUGUUUUUCUAAGACACAGAAAUGUAUUUAAUAAAACCUUCAAGAGAGAUGGAAUUCUCGGGUGCCAA,0.971
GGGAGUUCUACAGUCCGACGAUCUUAGGGAUGGGAUGAGUGGGAGGAAGCCCUUUGAGAAGGGGGAGCCGGCCCUGUCAUGCGCAGGUUUUCCACUCAUCUGAGGAAGAGCCAGGGCUCUGAAUUUAGCCUAAUGGAAUUCUCGGGUGCCAA,0.427
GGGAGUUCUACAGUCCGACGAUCCUUUGAGCUUGUAACCUAGCAGCUGGGGCCAGUGAGAGGUGACUCAGACACUCCUGCCUCAGUUUCUUAGAACAGUGUUGCUAUUGAUGCUUAAGAAUAAUUGCCUCUUGUGGAAUUCUCGGGUGCCAA,0.308
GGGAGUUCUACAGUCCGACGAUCGGUGGGGGGGUAGGGGAAAGCCACUUUUCCCGGAGGCUUCUCCUCCUCUGCCUGGCCUGUUCCUGUCCCUGUCUUCCUACCUCUAUAGCAAGCCCAAAGUGUCUUUUCAGUGGAAUUCUCGGGUGCCAA,0.593
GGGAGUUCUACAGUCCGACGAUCUAUAUUUUGGGUACUGGAGCUUUUAAAAAUGUUUGGUUUCAGGUAUUUUUAUUCAUGUGAAGUGUAUAUGAUUCUCUUGAGAUAAGGUUUUAAGCUAAAAUGUUACUCCCUGGAAUUCUCGGGUGCCAA,0.398
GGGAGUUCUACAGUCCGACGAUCUUCUAAUUAUGAAGAGCGUACCAGAAGUCUGUAUGAUAUUAGUGUCAUAUUUCAUUCAAAUGCCAAUUAAUAAAGCAAAGCUGACUGAAGUUGCCUCCCCUGGUGUUCCAUGGAAUUCUCGGGUGCCAA,0.171
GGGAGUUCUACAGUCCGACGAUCAGUGCCUGUUUCCGAGGAACCCUGUCUCCAGCUUGUGGCUAUCUUACUGUGUUCUGCCCAGGCACCUGAUGAGGUACAUCCUGCAGUGCCUCUCUGUGCUUGGCUCUGGCUGGAAUUCUCGGGUGCCAA,0.937
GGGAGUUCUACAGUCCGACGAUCUGGCCUUCCUAGAACACUGCUUCAUAACCUCUCUGUCUGACUUCUGCAUCUCCUUCCAGGUCAGCUCAUUCACAAGAGUUGCUCCCAAGCCUGGAUGAGUUGCACCUUGCUGGAAUUCUCGGGUGCCAA,0.488

# Block 2
# Target: CREB3L3, bZIP domain (human)
# Technique: DHFR protein complementation
# Medium: yeast
# Notes: single substitutions, most at no-binding floor
# Baseline: wild-type JUN-FOS pair
# Direction: higher = stronger binding
# Starting sequence: JUN, bZIP domain (human); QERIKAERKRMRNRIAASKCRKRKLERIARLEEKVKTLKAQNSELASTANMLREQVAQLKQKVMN; partner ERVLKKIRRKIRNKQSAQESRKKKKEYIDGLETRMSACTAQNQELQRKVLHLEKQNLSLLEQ
Change,binding fitness [natural log]
R30H,-1.18
T48R,-1.51
S43R,-1.43
S43I,-1.25
Q55R,-1.44
A49T,-1.29
T37D,-1.41
I28S,-1.43
V56L,-1.45
K36P,-1.5
A49H,-1.56
V35Y,-1.34
L52R,-1.51
S47H,-1.49
L52P,-1.53
Q55M,-1.42

# Block 3
# Target: Histone acetyltransferase KAT6A, both winged helices, GST fusion (KAT6A, Homo sapiens, UniProt Q92794, residues 1-181)
# Technique: protein binding microarray
# Molecule type: double-stranded DNA, one strand shown
# Medium: in vitro
# Tested at: not given
# Notes: 8-mer, flanks averaged, mean of 2 arrays, mostly near background
# Baseline: not given
# Direction: higher = stronger binding
# Target sequence (chain): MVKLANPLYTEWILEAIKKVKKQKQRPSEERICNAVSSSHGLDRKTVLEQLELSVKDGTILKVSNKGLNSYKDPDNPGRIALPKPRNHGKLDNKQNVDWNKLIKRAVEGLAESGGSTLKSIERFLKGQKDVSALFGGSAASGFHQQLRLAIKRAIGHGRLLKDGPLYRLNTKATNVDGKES
Sequence,E-score
CCTTCCCG,0.144
AATTACAG,-0.00962
GAACAAGA,-0.0573
CGTTCTAG,-0.0756
CGCAGCGA,0.138
GTAACTAA,-0.0382
ATGTCATC,-0.118
TCGCCTCA,-0.0456
GCTGCTGA,-0.0679
CATCGGAG,-0.0864
CGTGGGAA,-0.00713
ATTTCCTG,-0.19
GGGTCTAC,-0.07
GCCCTTCA,-0.0906
CTAGGTTC,-0.0823
AGGTCAAC,-0.083
CTAAGTCC,-0.168
GGAGATAA,-0.0508
AATTAATT,-0.1
AGAGGAAT,-0.212
AAAATTCC,-0.0135
AGTGAACA,-0.1
CCGAAGCC,0.0912
CCCCCATC,-0.223
CGGCGTCA,0.259

# Block 4
# Target: Centromere-binding protein 1, full length, His-tagged (CBF1, Saccharomyces cerevisiae, UniProt P17106, residues 1-351)
# Chain of UniProt P17106 (whole entry, looked up): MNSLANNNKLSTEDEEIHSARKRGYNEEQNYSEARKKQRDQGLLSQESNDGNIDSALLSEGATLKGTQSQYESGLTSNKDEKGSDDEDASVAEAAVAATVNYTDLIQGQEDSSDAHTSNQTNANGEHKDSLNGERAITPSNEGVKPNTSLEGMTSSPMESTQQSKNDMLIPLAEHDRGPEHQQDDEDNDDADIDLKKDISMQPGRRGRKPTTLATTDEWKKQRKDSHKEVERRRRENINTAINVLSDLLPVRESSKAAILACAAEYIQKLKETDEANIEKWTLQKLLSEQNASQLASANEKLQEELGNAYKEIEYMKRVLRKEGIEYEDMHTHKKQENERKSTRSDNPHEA
# Technique: competition protein-binding microarray
# Molecule type: double-stranded DNA, one strand shown
# Medium: in vitro
# Tested at: 2 µM
# Notes: whole 60-bp probe, lowest competitor level
# With: Pho4 competitor, 0.05 µM
# Direction: higher = stronger binding
Sequence,fluorescence intensity [a.u.]
AAAGCGGTAATTTGCCCTGTGGGTGCAGATATCTATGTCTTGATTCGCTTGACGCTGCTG,67.4
AAGTCCTTTTCCCGTCACGTGGTCGTAGAACACTCTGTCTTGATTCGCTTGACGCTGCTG,11300
TGTCCCAATTCCCAGCTCGTGGAACCTGGTGTTTTAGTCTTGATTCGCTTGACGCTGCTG,59.2
CATACCCAACCTTTTCACGTGACATAAGATATTTGTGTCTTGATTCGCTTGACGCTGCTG,6070
TTGTGGTGAAGCCGTTTTGTGATGGGTGTGGCGCGAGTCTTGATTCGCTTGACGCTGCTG,83.5
TGGCATTCGTCTACCCACGTCTTGGGTGAATCTTGTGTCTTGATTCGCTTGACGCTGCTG,54.5
AAAGCGGTAATTTGTCACTCGACTTCACATATCTATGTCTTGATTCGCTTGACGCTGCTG,78.9
ACCTCGGCTGCGCCTTCCGTGATGGCCATCACTGTCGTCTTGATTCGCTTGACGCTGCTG,76.5
GGACCATATAGAGCATAGGTGTGGCCCGCGATCCAGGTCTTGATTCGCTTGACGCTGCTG,51
CTAACGAAGGTTTGTCACGTAACTTACAAGCCAAGTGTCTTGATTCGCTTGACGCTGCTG,105
CTTCTCGAATCCTAAGGCGTGCAAAGATATGAGAATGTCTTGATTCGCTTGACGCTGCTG,90
CTTTCCCGATCTTGTCACCAGACTTTAGCACATTTGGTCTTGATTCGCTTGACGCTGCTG,94.1
TGATGTGAGTGCACTTAGTACTGATTTAGTGAGAGAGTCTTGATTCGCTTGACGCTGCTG,77.1
TCTCTTTCGAAAATGCTCGTGTAGCTCAGTGGTTAGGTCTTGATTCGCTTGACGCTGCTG,80.8
TGCGCAACAACTTGCACGGTGGGTGTATGTCTAGAAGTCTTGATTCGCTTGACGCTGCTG,69.4
ATATGTGTGCGACGACACATGATAATATGGCATGCAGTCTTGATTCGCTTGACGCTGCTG,299
CTAACGAAGGTTTGGACGGTGGGTGACAAGCCAAGTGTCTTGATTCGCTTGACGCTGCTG,71.9
CGGAAATGGCACCATCACCTGAAAAAGAAAGTAATCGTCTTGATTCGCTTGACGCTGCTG,94.1
GTACACACAAGGCGTCACATGAATTCTTGCCAAGTTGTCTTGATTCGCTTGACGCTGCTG,324

# Block 5
# Target: CCND3, cyclin fold, Cln2 fusion (human)
# Technique: yeast growth competition, sequencing
# Medium: yeast
# Notes: weak parent motif
# Baseline: not given
# Direction: higher = stronger binding
# Starting sequence: FOXM1 docking peptide (human); PHLARPIKVESPP; partner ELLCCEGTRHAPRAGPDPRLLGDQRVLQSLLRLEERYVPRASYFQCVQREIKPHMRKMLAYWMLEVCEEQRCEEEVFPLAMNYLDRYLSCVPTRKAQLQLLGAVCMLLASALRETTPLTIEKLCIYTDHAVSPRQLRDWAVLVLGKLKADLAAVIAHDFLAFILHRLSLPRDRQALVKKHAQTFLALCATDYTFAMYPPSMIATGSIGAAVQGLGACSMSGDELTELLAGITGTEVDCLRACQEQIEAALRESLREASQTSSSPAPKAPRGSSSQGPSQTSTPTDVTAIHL
Change,normalised enrichment score
PHLARPIKVEAPP [S11A],-0.216
PHAARPIKVESPP [L3A],-0.0117
PHLAAPIKVESPP [R5A],-0.215
PHLARPAKVESPP [I7A],-0.322
PHLARPIKAESPP [V9A],-0.0115
PHLARPIKVESPA [P13A],-0.0472
